Measured values pooled from the literature.
Lines come from different studies, so protocols differ. ± gives the spread as reported.
Technique: steady-state kinetics
B1: enzyme C434A (Methanosarcina mazei, UniProt Q8PVB1); chain MSEQRSVPLREHLLALKPCRHGGLIQETSETYGIPENEILDFSANFNPLGSPFDYPENGLNFEDIIKKSCGKLLEYPDNRYVEFREAAARFVGLGVTPQSIVPGNGSTEIVRLVVESVIEKGDKVLLPWPTFGEYEMQCRITGAEPVCPSQEEVNTLPDEVLEEAKILFICNPNNPTGKLRTREELKVLAERCREHKTLLYVDEAFIELSDPSQSVADLPAENNYVFVMRSLTKDFAIPGIRMGFGIAPPAMADILNTARLSWNLGAIANNTGIALLNIEGGIDSPYLKKAREMILKEGETLKAKIDRIRGFEAGEVNVNFILVDVSKFMLNSSELTARLAARGVLVRDCVSFHGLGKNYIRVAVRTEKENDRLIAAIGDVITEWGREQAKNELQHVIEKASEEGIGGRKTCEYYPCHFEGQNCTFCFCPFYPAENEKTGGKWIQSSRGGRVWSCVDCHLVHKKEIAQKILDCLMHEGDTDELVKVAWKEVMEPIL
B2: enzyme (UniProt A0A063Y6V3); chain MNTRVAIIGAGPCGLAQLRAFQSAAAKGAAIPELVCFEKQSDWGGMWNYTWRTGVDEHGEPVHGSMYRYLWSNGPKECLEFADYTFDEHFGRPIGSYPPREVLWDYIKGRVEKAGVRDYIRFNTAVRQVSYDETSGLFSVTVQDHSNNRVYTETFDYVVNACGHFSTPNTPYFEGFERFGGRVLHAHDFRDALEFKDKDILVVGSSYSAEDIGSQCYKYGARSITSCYRSAPMGYQWPQNWEEKPLLQRVDSDTAWFADGSHKRIDAIILCTGYQHHFPFLPDSLRLITENRLWPLKLYKGIFWEDNPKFLYLGMQDQWYSFNMFDAQAWYARDVILGRISLPGKAEMQAENQAWREREEKLQTAQEMFEFQGSYIQHLIDATDYPSFDIQAVNETFLAWKHDKYEDIMGYRNKCYRSLMTGTLATPHHTPWLDALDDSLEAYLQETPRLKSAV
B3: enzyme (Lactiplantibacillus plantarum, UniProt Q06115); chain CTAITYQSYNNYFGRNFDYEISYNEMVTITPRKYPLVFRKVENLDHHYAIIGITADVESYPLYYDAMNEKGLCIAGLNFAGYADYKKYDADKVNITPFELIPWLLGQFSSVREVKKNIQKLNLVNINFSEQLPLSPLHWLVADKQESIVIESVKEGLKIYDNPVGVLTNNPNFDYQLFNLNNYRALSNSTPQNSFSEKVDLDSYSRGMGGLGLPGDLSSMSRFVRAAFTKLNSLSMQTESGSVSQFFHILGSVEQQKGLCEVTDGKYEYTIYSSCCDMDKGVYYYRTYDNSQINSVSLNHEHLDTTELISYPLRSEAQYYAVN
B4: acsA (Pseudomonas chlororaphis, UniProt Q5CD72); chain MRDYEHVVESFDYLQSATQDLHGELTALNACVECCDRHAHGEAVALYCEAQDGHAERYRFRDLQRQAARFGNFLREQGVKPGDRVAGLMPRTVELLIAILGTWRIGAVYQPLFTAFGPKAIEQRLNCSNARWIVTDPHNRPKLDDVTDCPSIVVTGGAPQNPADHHFWSALNRQADDCAPVLLDASAPFLLMCTSGTTGPAKPLEVPLSAILAFKGYMRDAIDLRADDRFWNLADPGWAYGLYYAVTGPLACGYATLFYDGPFTVESTRHIIAKYAINNLAGSPTAYRFLIAAGAEFADAVRGRLRAVSSAGEPLNPQVVRWFAEQLGVVIHDHYGQTEIGMVLCNHHGLRHPVREGSAGYAVPGYRIVVLDKAHRELPAGQPGVLAVDRERSPLCWFDGYLGMPTQAFAGRYYLSGDIVELNDDGSISFVGRNDDLITTSGYRVGPFDVESALIEHPAVVEAAVIGKPDPQRTELIKAFVVLNTPYLPSPELAEELRLHVRQRLAAHAYPREMEFVDHLPKTPSGKLQRFILRNQEIAKQQALG
B5: enzyme (Sargassum horneri, UniProt A0A097IUG6); chain SPMAVASPSGFQKAMKTTLSSLGIDKATGITKPTTIYRNLPYPEVFKHEEQNKEGEVTKNGTFCVSTGQFTGRSPKDKYFVKQAPSDGKLDWGKINKGVASEVYKNIYDKAVKHYNTNVDKMYVFDGYCGTSPKSRKNVRIITELAWQHHFAKNMFIRPETEEEVANFVPDFTIINACKIVNEDYKELGLNSEVAVVFNVEESKAVITGTWYGGEMKKGIFSMMNYWLPLDGVMSMHCSANKGKDGDTALFFGLSGTGKTTLSADPARYLIGDDEHGWDDDGIFNFEGGCYAKTVNLSRENEPEIYDAIKRDALLENVIIKKNGEPDYADVSRTENTRVSYPIYHIDNYEPSGMGDHPKSIVFLTCDAFGVLPPVSRLSPGQAMYHFLSGYTAKVAGTERGVTEPTPNFSAGFGAAFLTLHPTVYADLLQEKLDKHGTQCFLINTGWTGGGYGVGKRMSIKATRACVDAVLDGSINKTKFTKEPVFGFEVPQELPNVPSKVLNPREAWSDKASYDATRTKLGDMFKNNFTKFVKPGMTDYTAYGPK
B6: SCO6712 Y229F (Streptomyces coelicolor, UniProt Q9XAL8); chain AKGITARTAPAGGEVRHLKMYAEKLADGQMGYGFEKGKASVPGPLIEVNEGDTLHIEFTNTMDVRASLHVHGLDYEISSDGTAMNKSDVEPGGTRTYTWRTHKPGRRDDGTWRPGSAGYWHYHDHVVGTEHGTGGIRNGLYGPVIVRRKGDVLPDATHTIVFNDMTINNRKPHTGPDFEATVGDRVEIVMITHGEFYHTFHMHGHRWADNRTGILTGPDDPSRVIDNKITGPADSFGFQIIAGEGVGAGAWMYHCHVQSHSDMGMVGLFLVKKPDGTIPGYEPHEHGGATAKSGESGEPTGGAAAHEHEH
B7: enzyme Y136L/Y168I (Bradyrhizobium diazoefficiens, UniProt Q45222); chain MIQTERAVQQVLEWGRSLTGFADEHAVEAVRGGQYILQRIHPSLRGTSARTGRDPQDETLIVTFYRELALLFWLDDCNDLGLISPEQLAAVEQALGQGVPCALPGFEGCAVLRASLATLAYDRRDYAQLLDDTRCLSAALRAGHAQAVAAERWSYAEYLHNGIDSIAIANVFCCLSLLWGLDMATLRARPAFRQVLRLISAIGRLQNDLHGCDKDRSAGEADNAVILLLQRYPAMPVVEFLNDELAGHTRMLHRVMAEERFPAPWGPLIEAMAAIRVQYYRTSTSRYRSDAVRGGQRAPA
B8: enzyme S252E/S281E/S285E/S287E (Schizosaccharomyces pombe, UniProt P78804); chain MSTPYEPEFQQAYKEIVGSIESSKLFEVHPELKRVLPIISIPERVLEFRVTWEDDKGNCRVNTGYRVQFNSALGPYKGGLRFHPSVNLSILKFLGFEQIFKNALTGLPMGGGKGGSDFDPKGKSDNEIRRFSQAFMRQLFRYIGPQTDVPAGDIGVTGFVVMHMFGEYKRLRNEYSGVVTGKHMLTGGSNIRPEATGYGVVYYVKHMIEHRTKGAETLKGKRVAISGSGNVAQYAALKCIQEGAIVKSISDEKGVLIAKTAEGLVPEEIHEIMALKEKRAEIADEAELCKKHHYIAGARPWTNVGEIDIALPCATQNEVSGEEAAALIKQGCRYVAEGSNMGSSAEAVEVFEKSRASGEGCWLAPGKAANAGGVAVSGLEMAQNAQFSTWTHAEVDAKLAGIMQNIFEQSTDVASKYCDSGSNNIPSLVDGANIAGFLKVATAMQAVGDWW
B9: enzyme D25A (Nitrosopumilus maritimus, UniProt A9A5X4); chain MDSQKFDSIIFDCDGVLVDITQSYAKTIDKTCRYVLKEFAKIDSITIDHKIIDGFKSSGGFNDEVDLVYAAILSLYTANKLNKKPSEFIYDVISNTDKTGIRSVQSYLESIYDVSEFLSKLGSLGDRHNNPVYSIFDQFFFGPELYGKLFDKQSKFSEEGMISNDKVILSVSLLETLQKEFGKKIAVVTGRGIESIRYSLKDMMDYFDTKNSAFLEDEPRELAKPNPATLIRAIQSMESKNCLYVGDSMEDYMMAKDAAQAGHSTTFCAIVGTSTNPEDRRKLFADSGVEMILESINDIPKVLNLV
B10: spt (Sphingomonas paucimobilis, UniProt Q93UV0); chain TEAAAQPHALPADAPDIAPERDLLSKFDGLIAERQKLLDSGVTDPFAIVMEQVKSPTEAVIRGKDTILLGTYNYMGMTFDPDVIAAGKEALEKFGSGTNGSRMLNGTFHDHMEVEQALRDFYGTTGAIVFSTGYMANLGIISTLAGKGEYVILDADSHASIYDGCQQGNAEIVRFRHNSVEDLDKRLGRLPKEPAKLVVLEGVYSMLGDIAPLKEMVAVAKKHGAMVLVDEAHSMGFFGPNGRGVYEAQGLEGQIDFVVGTFSKSVGTVGGFVVSNHPKFEAVRLACRPYIFTASLPPSVVATATTSIRKLMTAHEKRERLWSNARALHGGLKAMGFRLGTETCDSAIVAVMLEDQEQAAMMWQALLDGGLYVNMARPPATPAGTFLLRCSICAEHTPAQIQTVLGMFQAAGRAVGVIG
B11: enzyme (Rhodopseudomonas palustris, UniProt Q6N7F5); chain MSNTHPAVAAIEDYADVLARFRREDLEALFDGNFATGINVCIECCDRHVAGGGTALDWESQDGRTASFSFAEMKDYAARVANLLVAQGVKPGDVVAGMLPRTPELLALILGTWRAGAVYQPLFTAFGPKAIEHRVKMSAAKLVVTDLANRAKLADVADCPTVAIVLRPGETAPLGDLDFHAEIAAQSTEFAPVLRKGTDLFLMMSTSGTTGLPKGVPVPINALPAFYSYIRDAVDLRAGDIFWNIADPGWAYGLYYAVTGPLLHGHATTFYDGPFTAESTYGLIKRRGITNLAGAPTAYRLLIAAGPEAAAPVKGQLRVVSSAGEPLNPEVIRWFAEHLAAPIHDHYGQTELGMVVNNHHRLRHTVHPGSAGLAMPGFRVAVLDEHSNELPPNVPGVLSVDLKRSPLMWFSGYWQQETPAIEGGYYRTGDTVELEPDGSISFVGRADDVITSSGYRIGPFDVESALIEHAAVIEAAVIGKPDPERTEIVKAYVVLAKDVTPSEALAEELRQYVKKRLSAHAYPREIEFLEQLPKTPSGKLQRFILRKRDTEPAGTTQGSSSAA
B12: enzyme (Parabacteroides distasonis, UniProt A0A7L5EB83); chain QSETNRLDSIMPVRGLAIAAPSAQKLDLFLKFVQEELAPSHFNLLILRVDWNYAYESHPELRDPTPLTREDVKKIVKVCRDNGIRIAPQINLLGHQSWAETTYALLREYPEFDETPHVDTKNYTGWPNSDGLYCKSYCPLHPEVHKIVFALVDELTDVFETQLFHAGMDEVFYIGHDSCVRCGGHDKAELYAGEVTKIQNHLASQGKRLMIWGDRLIDGKTTGIGAWEASMNNTYRAIDLIPKDVFICDWHYERAEQTAVYFAMKGFDVATCPWRKPQIALQQVDDMIHFRQHSNPEMSRHFQGIIETVWSGTDSFLEAYYNPTTYKQEVSDAVTVKKLIEKYKALENR

Molecule | substrate | setting | kcat/Km [M⁻¹ s⁻¹]
enzyme (Pseudomonas poae, UniProt A0A2S9EJ63) | O=Cc1ccc(CO)o1 | pH 8, 30 °C, added: 2 µM FAD | 3.8
B1 (enzyme C434A) | Nc1ncnc2c1ncn2[C@@H]1O[C@H](COP(=O)(O)OP(=O)(O)OP(=O)(O)O)[C@@H](O)[C@H]1O | pH 8.5, 25 °C, apparent, anoxic, added: L-Thr 10 mM | 1170 ± 310
B2 (enzyme) | NC(=O)C1=CN([C@@H]2O[C@H](COP(=O)(O)OP(=O)(O)OC[C@H]3O[C@@H](n4cnc5c(N)ncnc54)[C@H](OP(=O)(O)O)[C@@H]3O)[C@@H](O)[C@H]2O)C=CC1 | pH 7, 30 °C, cofactor varied | 10800
B3 (enzyme) | CC(C)C[C@H](NC(=O)CC[C@@H](C)[C@H]1CC[C@H]2[C@@H]3[C@H](O)C[C@@H]4C[C@H](O)CC[C@]4(C)[C@H]3C[C@H](O)[C@]12C)C(=O)O | pH 6.2, 37 °C | 617 ± 66.7
B4 (acsA) | CC(C)CC(=O)O | pH 7 | 13.3 ± 1.67
B5 (enzyme) | C=C(OP(=O)(O)O)C(=O)O | pH 6.5, 25 °C, added: 2 mM ADP | 59000
B6 (SCO6712 Y229F) | CCn1c(=NN=c2sc3cc(S(=O)(=O)O)ccc3n2CC)sc2cc(S(=O)(=O)O)ccc21 | pH 7, 37 °C, NaCl 150 mM, added: O2 cosubstrate | 850 ± 40
enzyme (Chlorobaculum tepidum, UniProt Q8KC02) | CC(=O)C(=O)O | pH 7.5, 30 °C | 11300
B7 (enzyme Y136L/Y168I) | C=C1CC[C@@H]2C(C)(C)CCC[C@@]2(C)[C@@H]1CC/C(C)=C/COP(=O)(O)OP(=O)(O)O | – | 31000
enzyme (Oryza sativa, UniProt Q6ZGQ4) | O=[N+]([O-])c1ccc(O[C@@H]2OC[C@@H](O)[C@H](O)[C@H]2O)cc1 | pH 4, 40 °C, apparent | 19000
B8 (enzyme S252E/S281E/S285E/S287E) | NC(=O)C1=CN([C@@H]2O[C@H](COP(=O)(O)OP(=O)(O)OC[C@H]3O[C@@H](n4cnc5c(N)ncnc54)[C@H](O)[C@@H]3O)[C@@H](O)[C@H]2O)C=CC1 | pH 7, 30 °C, apparent | 12000 ± 1000
B9 (enzyme D25A) | N[C@H](COP(=O)(O)O)Cc1c[nH]cn1 | pH 7.8, 25 °C | 49 ± 3
B10 (spt) | CCCCCCCCCCCCCC(=O)SCCNC(=O)CCNC(=O)[C@H](O)C(C)(C)COP(=O)(O)OP(=O)(O)OC[C@H]1O[C@@H](n2cnc3c(N)ncnc32)[C@H](O)[C@@H]1OP(=O)(O)O | added: PLP | 9500
B11 (enzyme) | CC(C)C(=O)O | pH 7.5, 37 °C | 42000
B12 (enzyme) | CC(=O)N[C@H]1[C@H](Oc2ccc([N+](=O)[O-])cc2)O[C@H](CO)[C@@H](O)[C@@H]1O[C@@H]1O[C@H](CO)[C@H](O)[C@H](O)[C@H]1O | pH 6, 50 °C | 2120

Some of these lines once more:
Molecule | substrate | setting | kcat/Km [M⁻¹ s⁻¹]
B5 (enzyme) | C=C(OP(=O)(O)O)C(=O)O | pH 6.5, 25 °C, added: 2 mM ADP | 59000
B6 (SCO6712 Y229F) | CCn1c(=NN=c2sc3cc(S(=O)(=O)O)ccc3n2CC)sc2cc(S(=O)(=O)O)ccc21 | pH 7, 37 °C, NaCl 150 mM, added: O2 cosubstrate | 850 ± 40
